Experimental data of several laboratories.
Protocols differ between the studies behind these lines. ± gives the spread as reported.

SMILES = Cc1nc(N)nc2c1C(=O)N[C@@H](c1ccc(F)cc1-c1cccc(OCC[18F])n1)C2; test = ex vivo biodistribution; system = C57BL/6 mice, bone; conditions = intravenous, 1 MBq, 30 min; tissue uptake = 6.57 ± 0.42 %ID
SMILES = O=C(NCC1OC2CCC=CCCC2O1)c1ccc([18F])nc1 (stereo not shown); system = healthy female BALB/c nude mice, lungs; conditions = intravenous, 7.4 MBq per mouse, 5 min; tissue uptake = 5 ± 1.3 %ID/g
SMILES = CN(O)C(=O)CCC(=O)NCCCN(CCCCN(CCCNC(=O)CCC(=O)N(C)O)C(=O)CCC(=O)N(C)O)C(=O)CCC(=O)N(C)O.[89Zr]; test = gamma counting; system = healthy Balb/c mice, muscle; conditions = intravenous, 24 h, 89Zr-labelled complex; tissue uptake = 0.01 %ID/g
SMILES = CC(C)c1noc(C2CCN(c3ncnc(Nc4ccc(OCC[18F])cc4)c3[N+](=O)[O-])CC2)n1; test = ex vivo biodistribution after PET; system = C57BL/J male mice, lung; conditions = 60 min; tissue uptake = 1.29 ± 0.07 %ID/g
SMILES = COc1ccc(Nc2nc(Nc3ccc(OCCOCC[18F])cc3)ncc2Br)cc1; system = ICR mice, S180 tumour-bearing, brain; conditions = intravenous, 370 kBq, 30 min; tissue uptake = 2.32 ± 0.31 %ID/g
SMILES = CC(=O)N([O-])CCCCCNC(=O)CCC(=O)N([O-])CCCCCNC(=O)CCC(=O)N([O-])CCCCCN.[89Zr+4]; test = gamma counting; system = healthy Balb/c mice, plasma; conditions = intravenous, 1 h, 89Zr-labelled complex; tissue uptake = 0.89 ± 0.23 %ID/g
SMILES = Cc1cc(C)n(CCN(CCN)CCCCCCNC(=O)[C@@H](N)Cc2c[nH]cn2)n1.[99Tc+].[C-]#[O+].[C-]#[O+].[C-]#[O+]; system = BALB/c nude mice A549 xenograft, blood; conditions = intravenous, 4 h; tissue uptake = 0.3 ± 0.01 %ID/g
SMILES = O=C(NCC1OC2CCC=CCCC2O1)c1ccc(COCCOCCOCC[18F])cc1 (stereo not shown); system = healthy female BALB/c nude mice, stomach; conditions = intravenous, 7.4 MBq per mouse, 30 min; tissue uptake = 2.8 ± 0.4 %ID/g
SMILES = COc1ccc(Nc2nc(Nc3ccc(OCCOCCOCC[18F])cc3)ncc2Br)cc1; system = ICR mice, S180 tumour-bearing, brain; conditions = intravenous, 370 kBq, 5 min; tissue uptake = 2.54 ± 0.11 %ID/g
SMILES = CC[C@H](C)[C@H](NC(=O)C[C@H](NC(=O)CN1CCN2CCN(CC1)CC(=O)[O][Al]([18F])[O]C(=O)C2)C(=O)O)C(=O)N[C@H]1CCc2cccc3c2N(C1=O)[C@H](C(=O)NCc1cn[nH]n1)C3; system = C57BL/6J mice, MC-38 tumour, anti-PD-1 treated, lung; conditions = 0.5 h; tissue uptake = 1.42 ± 0.37 %ID/g

A few entries again:
SMILES = O=C(NCC1OC2CCC=CCCC2O1)c1ccc(COCCOCCOCC[18F])cc1 (stereo not shown); system = healthy female BALB/c nude mice, stomach; conditions = intravenous, 7.4 MBq per mouse, 30 min; tissue uptake = 2.8 ± 0.4 %ID/g
